Measurements collected from several papers.
Parts stem from different laboratories: compare values within a part only. Changes are numbered by the printed parent chain.

Set 1 — technique: protein-binding microarray; form: double-stranded DNA, one strand shown; medium: in vitro; concentration: 2200 nM top; setting: 60-bp whole probe; added: salmon DNA 0.4 mg/ml; baseline: random background probes; reading: higher = stronger binding; constant ends, left off below: GCCTAGCAC … GTCTTGATTCGCTTGACGCTGCTG
Target: Interferon regulatory factor 7, full length, phosphomimetic (IRF7, Homo sapiens, UniProt Q92985, residues 1-503, S471D/S472D/S475D/S476D/S477D/S483D/S484D/S487D)
Residues (chain): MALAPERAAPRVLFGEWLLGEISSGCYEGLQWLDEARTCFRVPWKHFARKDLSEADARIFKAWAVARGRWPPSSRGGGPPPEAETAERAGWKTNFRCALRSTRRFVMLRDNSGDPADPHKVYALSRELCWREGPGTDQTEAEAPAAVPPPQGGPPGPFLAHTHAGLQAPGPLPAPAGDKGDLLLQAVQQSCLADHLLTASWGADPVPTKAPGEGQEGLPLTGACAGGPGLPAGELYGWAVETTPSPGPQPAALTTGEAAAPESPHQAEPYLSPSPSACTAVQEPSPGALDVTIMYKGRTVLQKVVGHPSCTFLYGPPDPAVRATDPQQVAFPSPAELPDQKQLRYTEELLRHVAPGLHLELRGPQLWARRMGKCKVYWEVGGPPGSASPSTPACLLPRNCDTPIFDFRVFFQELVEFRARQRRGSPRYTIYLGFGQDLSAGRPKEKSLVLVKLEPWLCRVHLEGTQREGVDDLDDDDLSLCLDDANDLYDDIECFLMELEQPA
Strand	fitted relative affinity
TATTGTTTCCTTCCTCTTTTGTGCTAG	3.85 z-score
GACGGGCTCCTTATCCTGACGTGCTAG	0.0132 z-score
GACGGACTGGAATATCGGGACGTGCTA	-0.578 z-score
GACGGTCTCGGTAGCGGGACGTGCTAG	-0.583 z-score
GTCGGTATCGGGTTTCGGGACGTGCTA	2.24 z-score
GACGATATCGGGTAGCGAGACGTGCTA	-0.25 z-score
TCATTTTCATTTTATGACACTGTGCTA	6.68 z-score
TTAGAACTGAGTTTCGATTCGTGCTAG	8.91 z-score
GACGAACTGAGGTATCGAGACGTGCTA	-0.422 z-score
TTAGGACTGGTTATCGGTTAGTGCTAG	0.494 z-score
GACGATCTCAGTTTCGACACGTGCTAG	3 z-score
TCATCTCCCCCATCTTGTACTGTGCTA	1.33 z-score
AGATCCATGCTCTGTCGCAGGGTGCTA	0.195 z-score
GACGTTTTCGGTTCCGGGACGTGCTAG	10.4 z-score
GACGGTTTCGTACTGGGGACGTGCTAG	3.73 z-score
TTAGATCTAAGTTTCGATTAGTGCTAG	4.9 z-score
TTAGATTTCAGAATCGATTAGTGCTAG	0.672 z-score
TCAGTTTCTGATATGGTACTGTGCTAG	3.1 z-score
AGCATCTTCAAGACTCATAATGTGCTA	-0.349 z-score
TTAGGTATTCTTCTCCTTTAGTGCTAG	0.948 z-score
GACGATATCAGACTGGAGCCGTGCTAG	-0.0123 z-score
TTAGATCTCAGTATCAATTAGTGCTAG	0.000868 z-score
GACGGTCTCAGTTTCGAGACGTGCTAG	3.39 z-score
TTAAATCTCAGACTGGATTAGTGCTAG	-0.556 z-score
GACGATATCAGACTGGAGTCGTGCTAG	0.329 z-score

Set 2 — target: CCND3, cyclin fold, Cln2 fusion (human); technique: yeast growth competition, sequencing; medium: yeast; setting: weak parent motif; baseline: not given; reading: higher = stronger binding
Parent: E2F1 docking peptide (human); PPVKRRLDLETDH; partner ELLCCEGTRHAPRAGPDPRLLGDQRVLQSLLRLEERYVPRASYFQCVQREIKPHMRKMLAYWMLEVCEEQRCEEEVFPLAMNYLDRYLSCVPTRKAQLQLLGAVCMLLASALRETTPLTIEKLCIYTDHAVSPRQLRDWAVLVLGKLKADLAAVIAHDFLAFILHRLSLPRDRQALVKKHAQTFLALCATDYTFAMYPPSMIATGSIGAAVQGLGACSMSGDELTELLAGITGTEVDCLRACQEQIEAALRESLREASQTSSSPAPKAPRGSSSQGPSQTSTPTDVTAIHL
Substitution	normalised enrichment score
PPVKHRLDLETDH [R5H]	0.147
PPVKRRLPLETDH [D8P]	0.0842
PPEKRRLDLETDH [V3E]	0.00143
PPHKRRLDLETDH [V3H]	0.0947
PPVKRRLDLKTDH [E10K]	0.0289
PPVKRRLDLECDH [T11C]	0.11
PPVKKRLDLETDH [R5K]	0.273
PDVKRRLDLETDH [P2D]	0.127
PPVKRRLDLLTDH [E10L]	0.189
PPVKRRLDLETDP [H13P]	0.156
PPVQRRLDLETDH [K4Q]	0.172
PYVKRRLDLETDH [P2Y]	0.112
PPVIRRLDLETDH [K4I]	0.0905
PPVKRRLDLCTDH [E10C]	0.144
PPVKRRLDLETDW [H13W]	0.127
PPVKRRMDLETDH [L7M]	0.102
PPVDRRLDLETDH [K4D]	0.112
SPVKRRLDLETDH [P1S]	0.147

Set 3 — technique: protein binding microarray; form: double-stranded DNA, one strand shown; medium: in vitro; concentration: not given; baseline: not given; reading: higher = stronger binding
Target: Histone acetyltransferase KAT6A, winged helix 2, GST fusion (KAT6A, Homo sapiens, UniProt Q92794, residues 85-181)
Setting: 8-mer, flanks averaged, mean of 2 arrays, mostly near background
Construct (chain): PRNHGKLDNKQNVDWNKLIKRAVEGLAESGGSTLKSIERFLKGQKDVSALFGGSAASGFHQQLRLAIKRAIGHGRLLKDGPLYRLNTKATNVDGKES
Strand	E-score
CCTAAACG	0.0864
ATAAGAAA	0.0568
CGGGTTAA	0.119
ACTGCCTC	-0.0813
GAAGCCAC	-0.0571
CCTCTGGC	0.0563
ACCGTTGC	-0.14
CGAGAGCC	0.0819
TATACGAA	0.0294
AATCTTAT	0.0889
GCACTACA	-0.0584
CCCCATCA	0.054
GTGTTTTA	0.0623
TAGAGTCA	-0.316
AGACGTCA	-0.181
GGGTTGAA	-0.061
TCCGCGGA	0.208

Set 4 — technique: RNA Bind-n-Seq; form: RNA; medium: in vitro; concentration: 200 nM; setting: whole 134-nt RNA, ends assumed; added: 150 mM LiCl; baseline: input library; reading: higher = stronger binding; all molecules: 7-deaza-guanosine replaces G
Target: Fragile X messenger ribonucleoprotein 1, C-terminal low-complexity region (Fmr1, Mus musculus, UniProt P35922)
Constant ends, left off below: GGGAGUUCUACAGUCCGACGAUC … UGGAAUUCUCGGGUGUCAAGG
Strand	log2 enrichment
UCAAGUCCUGUGCUACACAUCGUAUGUACCGAAUCGGGCCCGGCCCGGGCCCGGGAAAGUAUUAUGUUACGCCGUUCGGAUCUGCACUUC	-1.75
UCCUGUGCUACACAUCGUAUGUACCGAAUCGGGAAAAAGGGUUUUUGGGAAAAAAAGGGAAAGUAUUAUGUUACGCCGUUCGGAUCUGCA	-0.868
UGGCCCUGGUGGCAUGCGGGGAGGAAGAGGUGGCCUCAUGGAUCGUGGUGGUCCCGGUGGACUGUUCAGAGGUGGCCGUGGUGGAGACAG	0.735
AAGUCCUGUGCUACACAUCGUAUGUACCGAAUCGGUUUUUUUGGUUUUUGGAAAGGAAAGUAUUAUGUUACGCCGUUCGGAUCUGCACUU	-1.95
GCAGGAAGUAAAAACAAAUGGAACUGCUUCGGAUAGUGGCAGGGGUGGGGGUUGCUAAGGAAAGGGUGGGAUGGGAGUGGGUAAAGAGUU	1.55
AGUCCUGUGCUACACAUCGUAUGUACCGAAUCGGGUUUGGGAAAAAGGGAAAAAGGGAAAGUAUUAUGUUACGCCGUUCGGAUCUGCACU	-1.37
AGUCCUGUGCUACACAUCGUAUGUACCGAAUCGGGUUUGGGAAAAAGGGUUUUUGGGAAAGUAUUAUGUUACGCCGUUCGGAUCUGCACU	-2.73
AGUCCUGUGCUACACAUCGUAUGUACCGAAUCGGGGUUUUUGGGGUGGGGUUUGGGGAAAGUAUUAUGUUACGCCGUUCGGAUCUGCACU	-0.965
UCCUCAAGUCCUGUGCUACACAUCGUAUGUACCGAAUCGGUGGAAAGGAGGAAAGUAUUAUGUUACGCCGUUCGGAUCUGCACUUCCAGC	-0.493
UUGAUGCCCCAGAUGUGGAUGUUCAUGGCCCAGACUGGCACCUGAAGAUGCCUAAGAUGAAAAUGCCCAAGUUCAGCAUGCCUGGCUUCA	-1.42
CCUGUGCUACACAUCGUAUGUACCGAAUCGGGUUUUUUUGGGUUUUUUUGGGUUUUUUUGGAAAGUAUUAUGUUACGCCGUUCGGAUCUG	0.783

Set 5 — technique: RNA Bind-n-Seq; form: RNA; medium: in vitro; concentration: 365 nM; baseline: no-protein control; reading: higher = stronger binding
Target: RNA binding protein fox-1 homolog 2, RRM domain, GST-SBP tag (RBFOX2, Homo sapiens, UniProt O43251-10, residues 100-194)
Setting: natural RNA segment, single round, ends assumed
Constant ends, left off below: GGGAGUUCUACAGUCCGACGAUC … UGGAAUUCUCGGGUGCCAA
Target sequence (chain): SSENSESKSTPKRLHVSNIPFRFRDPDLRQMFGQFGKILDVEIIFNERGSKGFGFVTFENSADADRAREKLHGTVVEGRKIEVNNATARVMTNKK
Strand	RBNS enrichment (R)
AAGGUCAUGAGGGCAGUCUCCCAGACUGCAGGCCUGAGUAAGUGUUGAGUUUUGCAUAAACACAAACUGUUCAUCCACAGCACUGCUCAAUCUCCUUCUAUCCCUCCUCC	0.294
UUGGAGUUCAUGUGAAGGAAUGUCUUUUUAAAUAAUGCUACUCUGAUGCCAUAAUUUUCUAUGGCUCACUAGCUACACUUCCUAGACAUGAGGACUGAUUCCUGUUCACA	0.32
UGAGUCUAGUUUUCUCUCAAAAUGAGAACAUUAGGCUAAAUGAUUUCCGAGUUUCCAGCUAGUCCUAGAGUUCUAUAUUUCUACAUAGUUGAAUUAUUUUAUCAUGCUGU	0.316
UACUGAAAGCAAGCAGUGGCCUAUAAAGAACAUUCUUAGGAGCCUUUUCUAUUUGCGUUCAAAACUGUGUGUUCUCUUUCUAUUCCUAUUUGAUAGUUUGAGUCAUGGUC	0.289
UAAUAUAUAUUCAGAAUAAUAAACUCAAGCUGGAGAAAUGAGUCCUGAUAGACUGAAAAUUGAGCAAAUGGAAGAAGAUACAGUAUUGUUUAGAUCAGAAUCAUUAAAAA	0.852
AUCAUUUAAAUAUAAUUCAGCAUAUGGGAAGUAACAUUGCACUAAUAUGGAAAUCACUGCCAGAGACAGUCUAUUUUCUUUUAAUUUGUUACUACUUAGUCACAAACCCC	0.765
AUCCAACGGAAUAUAAUCAGUUUUCAUUCAUUCCAGUGCCUAGUUAAAUCUAACCUGACUUAAACAUAUGCCUGUUUUUAUGUUUACCUAUAAUUUUCAUAUAGCCGUAU	0.969
GCCACCACAUGGCCCAGCAUCUCUGCCAAACACAGUUGCUUCUAGUCUGGCCAGUGCCAAGAGACAACAUAACAUGGCAGGUGGAUGGUGUCGGUGUCAUUGUCUCAGCU	0.283
CAUGGGCAUACCAAGCCAGAGCCCCAGGGAUAAGCUGGGGGGUCUUGUGGCCUUUAGGACAGUGCUUAGCACUGUGCAGCUGGGACUGUCCCUGGCAAGUGCCUGGUAAA	0.317
AUCUCAUUGAUUAUUGACACCUUGAGGUCUGAAGGAUUCCACACUCGAGGAUGCUGACCUAAGCCAGAGCCAUCUAGUUGCCCCUCUGGGCAACUUUGGGAAUUCUGGGA	0.252
ACUGUGCCUAGCCGGGGCUGCCACAGCUCCCAGGUAUUUUCUACAGGACCAUCUGAGCGGGCAGCCAAACCUGCUUCACAGUAUCAAUAAAGCGGUUCUUUGAGGUCUGG	0.327
UUUAUUGCUUCUUACUGAUACUGACUUAGAAAGCUUUCUGGGUUUUGUAUUUGUUUUAAGAAACAUUGGUUCCUAUGUAUUUUAGCAUUUUUGGUGAUUUCAAUUGACUU	0.313

Some of these lines once more (set 1):
Strand	fitted relative affinity
AGATCCATGCTCTGTCGCAGGGTGCTA	0.195 z-score
TTAGAACTGAGTTTCGATTCGTGCTAG	8.91 z-score
GACGGTCTCGGTAGCGGGACGTGCTAG	-0.583 z-score
GACGAACTGAGGTATCGAGACGTGCTA	-0.422 z-score
GACGATCTCAGTTTCGACACGTGCTAG	3 z-score
TCATTTTCATTTTATGACACTGTGCTA	6.68 z-score
GACGGGCTCCTTATCCTGACGTGCTAG	0.0132 z-score
GACGATATCAGACTGGAGCCGTGCTAG	-0.0123 z-score
GACGGACTGGAATATCGGGACGTGCTA	-0.578 z-score
TTAAATCTCAGACTGGATTAGTGCTAG	-0.556 z-score
GACGGTCTCAGTTTCGAGACGTGCTAG	3.39 z-score
